Measured values gathered from unrelated publications.
Compare with care: the assays were run in different laboratories. Values joined by “and” are separate records of one study, mostly repeats; a detail may differ. Numbers after ± are the reported error. ≈ marks a conversion by molar mass, not a printed value.

COc1cccc(C=CC(=O)C=Cc2cccc(OC)c2OC)c1OC
LC50 (fish embryo acute toxicity test; zebrafish (Danio rerio) embryos wild-type; immersion, up to 96 h, 0.1% DMSO): 100 µM

CC[C@H](C)[C@H](NC(=O)[C@H](Cc1c[nH]c2ccccc12)NC(=O)[C@@H]1CSSC[C@H](NC(=O)[C@H](CCC(=O)O)NC(=O)[C@H](Cc2c[nH]c3ccccc23)NC(=O)[C@H](CCC(N)=O)NC(=O)COCCOCCNC(=O)[C@H](CCC(=O)O)NC(=O)[C@H](Cc2c[nH]cn2)NC(=O)[C@@H](N)Cc2c[nH]cn2)C(=O)N2CCC[C@H]2C(=O)N[C@@H](Cc2ccc(O)cc2)C(=O)NCC(=O)N[C@@H](CC(C)C)C(=O)N1)C(=O)N[C@@H](CCC(N)=O)C(=O)O [technetium-99m labelled]
distribution half-life (male C57BL/6 mouse, blood; intravenous): 8.6 ± 1.9 min

O=c1[nH]c(Cc2ccccn2)nc2c1cnn2C1CCOCC1
Cmax (male human, plasma; oral, 2 mg, single dose): 18.8 nM

C[C@]12CC[C@H](O)C[C@H]1CC[C@@H]1[C@@H]2CC[C@]2(C)[C@@H](c3ccc(=O)oc3)CC[C@]12O
aqueous solubility (HPLC-UV; water; 24 h, pH neutral, room temperature): 42.4 µg/mL (≈ 110 µM)

CN[C@@](C)(C[18F])C(=O)O
tissue uptake (SCID mouse U87 xenograft, lung; 15 min, post injection): 4.1 ± 0.7 %ID/g

CC[C@H](C)[C@H](NC(=O)[C@@H](N)Cc1ccccc1)C(=O)NCC(=O)N[C@H](C(=O)N[C@@H](CC(C)C)C(=O)N[C@H](C(=O)N1CCC[C@H]1C(=O)N[C@@H](CC(C)C)C(=O)N[C@@H](C)C(=O)N[C@@H](CC(C)C)C(=O)NCC(=O)N[C@@H](C)C(=O)N[C@@H](CC(C)C)C(=O)N[C@H](C(=O)N[C@@H](CCCCN)C(=O)N[C@@H](CC(C)C)C(=O)N[C@@H](Cc1ccccc1)C(=O)N[C@@H](CCCCN)C(N)=O)[C@@H](C)O)[C@@H](C)CC)[C@@H](C)O
retention time (reversed-phase HPLC; hydrophobicity measure): 10.6 min

CCCCCCCCCCCCCCCCCC(=O)N[C@H](C(=O)N[C@H](C(=O)N[C@@H](CCCNC(=N)N)C(=O)N[C@@H](CCCNC(=N)N)C(=O)N[C@@H](C)C(=O)N[C@@H](CC(=O)O)C(=O)N[C@@H](CCCNC(=N)N)C(=O)N[C@@H](C)C(=O)N[C@@H](C)C(=O)N[C@H](C(=O)N1CCC[C@H]1C(=O)NCC(=O)NCC(=O)NCC(=O)NCC(=O)N[C@@H](CCCNC(=N)N)C(=O)NCC(=O)N[C@@H](CC(=O)O)C(=O)O)C(C)C)C(C)C)[C@@H](C)CC
volume of distribution (ELISA; Sprague Dawley rat male, blood; intravenous, 2.415 mg/kg): 2.66 ± 0.23 L/kg

CC(=O)[O][Pt]([NH2])([Cl])([Cl])([NH]C1CCCCC1)[O]C(C)=O
Tmax (rhesus monkey, cerebrospinal fluid, fourth ventricle; intravenous infusion over 1 h, 6 mg/kg; reference: start of infusion): 1.3 h and 1.5 h and 2.1 h

CCc1cc(O)ccc1-c1ccc2c(-c3nc4c([nH]3)CN(C(C)C)[C@H](C(=O)N3CC(N(C)C)C3)C4)n[nH]c2c1
t_half (human, plasma; inhalation, single and multiple doses): ~1440 min

[123I]c1cncc(OC[C@@H]2CCN2)c1
tissue/plasma ratio (SPECT; human, temporal lobe; intravenous bolus plus infusion, 5.2 mCi; reference: plasma): 19.3

O=C(N[C@@H](Cn1ccnc1)c1ccc(-c2ccc(F)cc2)cc1F)c1ccc(-c2nnc(-c3ccccc3)o2)cc1
AUC (mouse, plasma; oral, 25 mg/kg, DGAT formulation): 159 ng·h/mL

Repeated from above:
CC[C@H](C)[C@H](NC(=O)[C@H](Cc1c[nH]c2ccccc12)NC(=O)[C@@H]1CSSC[C@H](NC(=O)[C@H](CCC(=O)O)NC(=O)[C@H](Cc2c[nH]c3ccccc23)NC(=O)[C@H](CCC(N)=O)NC(=O)COCCOCCNC(=O)[C@H](CCC(=O)O)NC(=O)[C@H](Cc2c[nH]cn2)NC(=O)[C@@H](N)Cc2c[nH]cn2)C(=O)N2CCC[C@H]2C(=O)N[C@@H](Cc2ccc(O)cc2)C(=O)NCC(=O)N[C@@H](CC(C)C)C(=O)N1)C(=O)N[C@@H](CCC(N)=O)C(=O)O [technetium-99m labelled]
distribution half-life (male C57BL/6 mouse, blood; intravenous): 8.6 ± 1.9 min
